Published values of several laboratories.
Every numbered part comes from another study and shows a few of its results, in no order.

Block 1 — observed: enzyme activity; mode: inhibitor; concentration: 0.5 µM; relative to: control
Target: Death-associated protein kinase 1 (DAPK1, Homo sapiens, UniProt P53355)
Chain of UniProt P53355 (whole entry, looked up): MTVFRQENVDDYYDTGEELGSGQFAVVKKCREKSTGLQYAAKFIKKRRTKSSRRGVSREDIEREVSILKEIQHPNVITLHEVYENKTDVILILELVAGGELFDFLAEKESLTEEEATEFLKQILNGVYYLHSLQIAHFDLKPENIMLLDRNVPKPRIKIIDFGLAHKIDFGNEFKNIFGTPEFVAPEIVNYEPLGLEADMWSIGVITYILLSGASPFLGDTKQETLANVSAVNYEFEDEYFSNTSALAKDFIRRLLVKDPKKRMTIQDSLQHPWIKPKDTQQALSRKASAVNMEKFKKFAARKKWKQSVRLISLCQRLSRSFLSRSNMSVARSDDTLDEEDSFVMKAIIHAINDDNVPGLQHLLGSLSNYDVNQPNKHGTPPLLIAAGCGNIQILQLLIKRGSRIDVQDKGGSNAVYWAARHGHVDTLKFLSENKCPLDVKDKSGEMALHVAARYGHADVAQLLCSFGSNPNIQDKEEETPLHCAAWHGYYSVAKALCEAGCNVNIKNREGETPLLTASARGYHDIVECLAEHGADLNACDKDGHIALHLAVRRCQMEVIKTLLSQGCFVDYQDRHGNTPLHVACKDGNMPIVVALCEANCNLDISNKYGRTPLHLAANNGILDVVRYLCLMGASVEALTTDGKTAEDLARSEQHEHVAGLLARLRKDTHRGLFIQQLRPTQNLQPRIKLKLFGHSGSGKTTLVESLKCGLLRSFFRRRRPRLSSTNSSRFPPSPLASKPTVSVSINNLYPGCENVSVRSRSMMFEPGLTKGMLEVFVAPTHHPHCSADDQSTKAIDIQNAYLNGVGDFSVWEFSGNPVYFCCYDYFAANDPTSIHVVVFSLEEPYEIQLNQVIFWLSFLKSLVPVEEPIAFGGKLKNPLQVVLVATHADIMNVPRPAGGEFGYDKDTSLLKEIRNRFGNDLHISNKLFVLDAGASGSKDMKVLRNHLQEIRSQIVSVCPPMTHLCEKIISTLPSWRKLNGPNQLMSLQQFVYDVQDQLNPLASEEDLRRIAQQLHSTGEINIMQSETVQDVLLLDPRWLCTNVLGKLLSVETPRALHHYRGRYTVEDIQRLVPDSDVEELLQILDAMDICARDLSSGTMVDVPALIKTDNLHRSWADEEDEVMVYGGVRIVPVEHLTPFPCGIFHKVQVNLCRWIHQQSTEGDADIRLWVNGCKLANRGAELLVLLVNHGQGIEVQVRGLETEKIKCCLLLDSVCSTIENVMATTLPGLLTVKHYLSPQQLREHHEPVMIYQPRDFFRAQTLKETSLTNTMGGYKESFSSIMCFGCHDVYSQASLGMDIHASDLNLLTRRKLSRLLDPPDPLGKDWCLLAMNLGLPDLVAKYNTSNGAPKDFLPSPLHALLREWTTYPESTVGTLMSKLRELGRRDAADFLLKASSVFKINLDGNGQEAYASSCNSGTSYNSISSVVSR
| SMILES | remaining activity [%] |
| --- | --- |
| Nc1ccc2ncnc(NCCc3ccc(Oc4ccccc4)cc3)c2c1 | 110 |
| Cc1ccc(Nc2nccc(N(C)c3ccc4c(C)n(C)nc4c3)n2)cc1S(N)(=O)=O | 105 |
| Nc1ncnc2n[nH]c(Nc3ccc(F)cc3)c12 | 116 |
| COc1ccc(C(=O)Nc2sc3c(c2C(N)=O)CCCC3)cc1OC | 78.2 |
| COc1cc2ncnc(Nc3ccc(F)c(Cl)c3)c2cc1OCCCN1CCOCC1 | 109 |
| OCC(O)CCON=C1C(c2c(O)[nH]c3ccccc23)=Nc2ccccc21 (stereo not drawn) | 80.9 |
| O=S(=O)(c1cccc2cnccc12)N1CCCNCC1 | 79 |
| Nc1[nH]nc2nc3ccccc3nc12 | 91.5 |
| CCOC(=O)c1c(C)[nH]c(/C=C2\C(=O)Nc3ccccc32)c1C | 100 |
| COc1cc2ncnc(Nc3ccc(Oc4ccccc4)cc3)c2cc1OC | 105 |
| NCCNc1ncc(C(N)=O)c(Nc2cccc(C(F)(F)F)c2)n1 | 97.1 |
| COc1ccc(CNC(=O)Nc2ncc([N+](=O)[O-])s2)cc1 | 105 |
| O=C(CCCc1ccc(-c2ccccc2F)cc1)Nc1ccc(O)cc1 | 110 |
| Cn1sc(=O)n(Cc2ccccc2)c1=O | 97.9 |
| Cn1c2ccccc2c2c3c(c4c5ccccc5n(CCC#N)c4c21)CNC3=O | 102 |

Block 2 — cell line: Huh-7; concentration: 10 µM; time: 24 h
| Structure (SMILES) | viability [%] |
| --- | --- |
| C=C1C[C@H]2[C@@H]3C=C(C)C4=CC(=O)CC[C@]4(C)[C@H]3CC[C@]2(C)[C@@]1(OC(C)=O)C(C)=O | 80 |
| CCOC(=O)[C@H](CCc1ccccc1)N[C@@H](C)C(=O)N1Cc2ccccc2C[C@H]1C(=O)O | 97 |
| CN1CCN(C(c2ccccc2)c2ccccc2)CC1 | 101 |
| CCC(=O)OCC(=O)[C@@]1(OC(=O)CC)[C@H](C)C[C@H]2[C@H]3[C@H]([C@@H](O)C[C@@]21C)[C@@]1(C)C=CC(=O)C=C1C[C@H]3Cl | 98.8 |
| OC(CCN1CCCC1)(c1ccccc1)C1CCCCC1 (stereo not drawn) | 95.5 |
| O=C(c1ccc(F)cc1)C1CCN(CCn2c(=O)[nH]c3ccccc3c2=O)CC1 | 71.6 |
| CO[C@H]1C[C@@H]2CC[C@@H](C)[C@@](O)(O2)C(=O)C(=O)N2CCCC[C@H]2C(=O)O[C@H]([C@H](C)C[C@@H]2CC[C@@H](O)[C@H](OC)C2)CC(=O)[C@H](C)/C=C(\C)[C@@H](O)[C@@H](OC)C(=O)[C@H](C)C[C@H](C)/C=C/C=C/C=C/1C | 87.5 |

Block 3 — cell line: sample F normal colon organoid; technique: CellTiter-Glo; concentration: 1 µM; time: 4 days; relative to: DMSO
| Compound | viability [%] |
| --- | --- |
| CN(C)c1ncnc(-c2ccc3nc(Nc4cc(CN5CCN(C(=O)CC(F)(F)F)CC5)ccn4)[nH]c3c2)c1Cl | 106 |
| NS(=O)(=O)c1cc(NC(=O)C2(c3ccccc3Cl)CC2)ccc1Oc1cccc(Cl)c1 | 102 |
| NS(=O)(=O)c1cc(NC(=O)Cc2ccccc2)ccc1Oc1cccc(Cl)c1 | 102 |
| C[C@H](c1ccc(F)cc1)N(Cc1ccc(Cl)c(C(=O)O)c1)C(=O)c1cnc2ccccc2c1 | 95.3 |
| CN(C)C(=O)Cn1cc(-c2nc(C3(c4ccc(-c5cnc(N)nc5)cc4)CC3)no2)cn1 | 106 |
| CCCCN(Cc1ccccc1)C(=O)c1ccc(S(=O)(=O)Nc2ccccc2)cc1 | 109 |
| C[C@H](c1ccnc(Nc2nc3ccc(-c4cc(N(C)C)ncn4)cc3[nH]2)c1)N1CCN(C(=O)CC(F)(F)F)CC1 | 107 |
| Cc1c(NC(=O)c2cc(C(N)=O)nc3cc(F)ccc23)c(C(F)(F)F)nn1Cc1ccc(C#N)cc1 | 36.2 |

Block 4 — host: human; matrix: microsomes or S9; concentration: 2 µM; time: 0.5 h
| SMILES | remaining compound [%] |
| --- | --- |
| O=C(Nc1n[nH]c2cc(Br)ccc12)c1[nH]nc2c1CCCC2 | 0.0238 |
| O=C(COc1ccccc1)NCCn1cc(-c2ccncc2)c(-c2ccccc2F)n1 | 5.06 |
| Cc1cccc(Cn2c3cc(=O)n(CCC4C=Nc5ccccc54)c(C)c3c(=O)n2-c2ccccc2)c1 (stereo not drawn) | 14.2 |
| Cc1ccc(S(=O)(=O)n2cc(-c3cc(Cl)c(O)c(Cl)c3)c3c(N4CCN(C(=O)c5ccccc5)CC4)ncnc32)cc1 | 61.5 |
| CCc1cc2c(NCCO)nc(-c3ccccc3)nc2s1 | 62.2 |
| CN(C)c1ccc(S(=O)(=O)c2ccc(Cl)cc2)cc1 | 0.872 |
| Cc1ccc(Nc2nc(-c3sc(C)nc3C)cs2)nc1 | 0.49 |
| CCN(CC)C(=O)c1sc(NC(=O)c2cc(OC)cc(OC)c2)c(C(=O)OC(C)C)c1C | 16.7 |
| Cn1nc2n(c1=O)CCC(NC(=O)CCC1CCCCC1)CC2 (stereo not drawn) | 77.2 |

Some of these lines once more (block 4):
| SMILES | remaining compound [%] |
| --- | --- |
| Cc1ccc(Nc2nc(-c3sc(C)nc3C)cs2)nc1 | 0.49 |
| CCN(CC)C(=O)c1sc(NC(=O)c2cc(OC)cc(OC)c2)c(C(=O)OC(C)C)c1C | 16.7 |
